Assay results of several laboratories.
Target: Serine/threonine-protein kinase RIO2 (RIOK2, Homo sapiens, UniProt Q9BVS4)

SMILES | observed | method | tested at | reference | remaining binding [%]
C=CC(=O)N1CCCC(n2c(=O)c3ncccc3n(Cc3ccc(Oc4ccccc4)cc3)c2=O)C1 (centres unmarked) | cell-free assay | competition with immobilised ligand | 1 µM |  | 69
COc1ccc(NC(=O)Nc2ccc3c(c2)C(=O)N(C(C)CO)CC(C)C(CN(C)Cc2ccc4c(c2)OCO4)O3)cc1 (centres unmarked) | binding | competition with immobilised ligand | 10 µM |  | 38
CC(C)(C#N)c1ccc(-c2cnc(Nc3cnccn3)nc2Cl)cc1 | cell-free assay | competition with immobilised ligand | 10 µM |  | 7.8
CNS(=O)(=O)Nc1nccc(Cc2c(C)c3ccc(Oc4ncccc4F)cc3oc2=O)c1F | binding | competition with immobilised ligand | 10 µM |  | 99
CNC(=O)C1CCN(c2cc(C)c(F)cc2NC(=O)c2ccc(-c3cc(O)ccc3C)c(C)c2)CC1 | binding | competition with immobilised ligand | 1 µM |  | 100
Cc1cc(NC(=O)[C@H](O)c2cc(F)cc(F)c2)ccc1-c1cnc(N)c(C(=O)NC(C)C)c1 | binding | competition with immobilised ligand | 1 µM |  | 26
CC(=O)N1c2ccc(-c3ccc(CNC(=O)c4cn5cc(-c6cnc(N)nc6)nc(N6CCOCC6)c5n4)cc3)cc2CC[C@@H]1C |  | KINOMEscan | 10 µM |  | 6
CN1CCN(Cc2ccc(NC(=O)c3cccc(C#Cc4cnc(N)c5ncccc45)c3)cc2C(F)(F)F)CC1 | cell-free assay | competition with immobilised ligand | 0.5 µM |  | 28
Cc1cnc2nc1Nc1cccc(c1)COC/C=C/COCc1cc(ccc1OCCN1CCOCC1)N2 | binding | competition with immobilised ligand | 0.1 µM |  | 72
COc1c(Cl)cccc1Nc1c(-c2ccncc2C#C[C@@]2(C)CCCN2C(=O)/C=C/CN(C)C)[nH]c2c1C(=O)NCC2 | binding | competition with immobilised ligand | 3 µM |  | 71
CC(C)=CC1OC(C)(C)C2C=C3C(=O)C(Cl)=CC(O)C3C3C(O)C4OC4C(=O)C132 (centres unmarked) | cell-free assay | competition with immobilised ligand | 10 µM |  | 79
Cc1ccc(-c2c(/C=C(\C#N)C(=O)NC(C)C)n(CCCO)c3ncnc(N)c23)cc1 | cell-free assay | competition with immobilised ligand | 1 µM |  | 72
Nc1ncc2c(n1)-c1c([nH]c3ccc(C4=CCOCC4)cc13)CCC2 | binding | competition with immobilised ligand | 1 µM |  | 40
COc1cc(Nc2nc(C)cc(-c3cnn4nc(OC)ccc34)n2)cc(C(F)(F)F)c1 | binding | competition with immobilised ligand | 1 µM |  | 87
CNC1C[S+]2CC[S+]3CC[S+](C1)[Ru-4]321([N]=C=S)[n]2c3ccc(OC)cc3c3c4c(c5cc(F)c[n+]1c5c32)C(=O)NC4=O (centres unmarked) |  | KinomeScan | 0.1 µM | untreated | 100
C=CC(=O)N1CCc2ccc(-n3c(=O)ccc4cnc5ccc(-c6cnn(C)c6)cc5c43)cc21 |  | KINOMEscan | 1 µM | DMSO control | 96
CC(=O)Nc1ccc(-c2ccnc(NCC3CCC3)n2)cc1 | cell-free assay | competition with immobilised ligand | 10 µM |  | 12
COc1cc(Nc2nccc(-c3cnn4nc(OC)ccc34)n2)cc(C(F)(F)F)c1 | binding | competition with immobilised ligand | 1 µM |  | 81
CCN1CCN(Cc2ccc(C(=O)Nc3ccc(C)c(NCc4cnc5[nH]ccc5c4OC)c3)cc2C(F)(F)F)CC1 | binding | competition with immobilised ligand | 1 µM |  | 28
C=C1CCCCCCCCCC(CO)C1=O (centres unmarked) | cell-free assay | competition with immobilised ligand | 10 µM |  | 69

For quick reference, copied from above:
SMILES | observed | method | tested at | reference | remaining binding [%]
C=CC(=O)N1CCc2ccc(-n3c(=O)ccc4cnc5ccc(-c6cnn(C)c6)cc5c43)cc21 |  | KINOMEscan | 1 µM | DMSO control | 96
CCN1CCN(Cc2ccc(C(=O)Nc3ccc(C)c(NCc4cnc5[nH]ccc5c4OC)c3)cc2C(F)(F)F)CC1 | binding | competition with immobilised ligand | 1 µM |  | 28
